Assay results pooled from the literature.
Numbered parts are unrelated; each lists some results of a single study. Changes are numbered by the printed parent chain.

Sample 1 — technique: RNA Bind-n-Seq; form: RNA; medium: in vitro; tested at: 200 nM; notes: whole 134-nt RNA, ends assumed; together with: 150 mM LiCl; baseline: input library; reading: higher = stronger binding; all molecules: 7-deaza-guanosine replaces G
Target: Ras GTPase-activating protein-binding protein 1, full length (G3BP1, Homo sapiens, UniProt Q13283)
Sequence of UniProt Q13283 (whole entry, looked up): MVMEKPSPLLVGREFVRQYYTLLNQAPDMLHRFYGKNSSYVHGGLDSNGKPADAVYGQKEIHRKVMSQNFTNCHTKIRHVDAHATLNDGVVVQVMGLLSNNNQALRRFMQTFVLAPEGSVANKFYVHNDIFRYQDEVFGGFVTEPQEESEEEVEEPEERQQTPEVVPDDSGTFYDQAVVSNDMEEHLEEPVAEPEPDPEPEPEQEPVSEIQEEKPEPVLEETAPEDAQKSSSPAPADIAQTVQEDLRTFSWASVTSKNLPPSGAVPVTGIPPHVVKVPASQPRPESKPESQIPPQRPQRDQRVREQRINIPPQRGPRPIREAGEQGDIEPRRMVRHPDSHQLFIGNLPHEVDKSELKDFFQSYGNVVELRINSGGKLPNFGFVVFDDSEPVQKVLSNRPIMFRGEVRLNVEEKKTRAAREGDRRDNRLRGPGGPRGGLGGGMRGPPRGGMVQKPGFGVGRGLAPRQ
Constant ends, left off below: GGGAGUUCUACAGUCCGACGAUC … UGGAAUUCUCGGGUGUCAAGG
| Oligonucleotide | log2 enrichment |
| --- | --- |
| UUGAUGCCCCAGAUGUGGAUGUUCAUGGCCCAGACUGGCACCUGAAGAUGCCUAAGAUGAAAAUGCCCAAGUUCAGCAUGCCUGGCUUCA | -0.853 |
| AGUCCUGUGCUACACAUCGUAUGUACCGAAUCGGGGUUUUUGGGGUGGGGUUUGGGGAAAGUAUUAUGUUACGCCGUUCGGAUCUGCACU | -0.438 |
| CACAGACAACACGCACCCACACAGACACAGAGGGAAGGGGUUGGGAUGGGGACAGGGUGCACAGAAAGGCGGGGUAGGACCCCAGCCCCU | -0.372 |
| AGUCCUGUGCUACACAUCGUAUGUACCGAAUCGGGUUUGGGAAAAAGGGUUUUUGGGAAAGUAUUAUGUUACGCCGUUCGGAUCUGCACU | -2.07 |
| AGUCCUGUGCUACACAUCGUAUGUACCGAAUCGGGAGGGAAAAAGGGUUUUUUUGGGAAAGUAUUAUGUUACGCCGUUCGGAUCUGCACU | -1.13 |
| UGGGAGGUGGAUUUUGUUUAUUUUUUUAGCUCAUUUCCAGGGGUGGGAAUUUUUUUUUAAUAUGUGUCAUGAAUAAAGUUGUUUUUGCAA | 0.32 |
| AGUCCUGUGCUACACAUCGUAUGUACCGAAUCGGGAGGGAAAAAAAGGGAAAAAGGGAAAGUAUUAUGUUACGCCGUUCGGAUCUGCACU | -0.417 |
| UGGCCCUGGUGGCAUGCGGGGAGGAAGAGGUGGCCUCAUGGAGCGUGGUGGUCCCGGUGGAAUGUUCAGAGGUGGCCGUGGUGGAGACAG | -0.175 |

Sample 2 — technique: protein-binding microarray; form: double-stranded DNA, one strand shown; medium: in vitro; tested at: 250 nM; notes: 60-bp whole probe; together with: salmon DNA 0.4 mg/ml; baseline: random background probes; reading: higher = stronger binding; constant ends, left off below: GCCTAGCAC … GTCTTGATTCGCTTGACGCTGCTG
Target: Interferon regulatory factor 5, full length, phosphomimetic (IRF5, Homo sapiens, UniProt Q13568-2, residues 1-514, K96S/S451D/S453D/S456D/S462D)
| Oligonucleotide | log fluorescence [z-score] |
| --- | --- |
| TTAGATATCGCGTTTCGATTAGTGCTA | 5.45 |
| TTAGAACTGAGTTTTGATTAGTGCTAG | 0.797 |
| GATGGTCTCGGTATCGGGACGTGCTAG | 1.39 |
| GACGACCTGAGTTTCGAGACGTGCTAG | 4.1 |
| TTAGGTATCGGGTTTCAGTTAGTGCTA | 5.02 |
| TTAGGTATCGACTTGCGGTTAGTGCTA | 4.09 |
| GGCCTTGGAGGGGGTGGGTGGTGCTAG | 1.71 |
| TCATTTCTGTGTCACAGACTGTGCTAG | 2.29 |
| TTAGATTTCAGGTTCGATTAGTGCTAG | 1.5 |
| CAGAGCCTCAGTCCTCACACAGTGCTA | -0.464 |
| TTAGGTTTCGGGTATCGGGTAGTGCTA | 9.17 |
| AACGGACTGCTTCTCCTGACGTGCTAG | -0.566 |
| ATGTCCTCCTCTCTCTTTCCGTGCTAG | 0.32 |

Sample 3 — technique: protein binding microarray; form: double-stranded DNA, one strand shown; medium: in vitro; tested at: not given; baseline: not given; reading: higher = stronger binding
Target: Histone acetyltransferase KAT6A, winged helix 1, GST fusion (KAT6A, Homo sapiens, UniProt Q92794, residues 1-85)
Notes: 8-mer, flanks averaged, mean of 2 arrays, mostly near background
Residues (chain): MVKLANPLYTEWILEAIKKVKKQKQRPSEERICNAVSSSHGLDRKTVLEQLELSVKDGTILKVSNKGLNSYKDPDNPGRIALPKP
| Oligonucleotide | E-score |
| --- | --- |
| AGATTGAG | -0.143 |
| ACAAAAGA | -0.0406 |
| CATTTCGG | -0.118 |
| AGGACCCA | -0.274 |
| AACGCGCG | 0.419 |
| CAAATCAA | -0.203 |
| CCCGAGTA | 0.21 |
| AGTGGACG | -0.0225 |
| TAAGAGGA | -0.192 |
| CCCGGCTA | 0.215 |
| ATGTTCAA | -0.0701 |
| CGGTGAAG | 0.155 |
| CTTGCCCC | -0.0511 |
| ACTGTCAA | -0.0448 |
| TCCCGGCA | 0.339 |
| AGTTCGAT | -0.267 |
| CACTACAC | 0.0087 |
| CATGCTAA | -0.17 |
| ATGGAGAG | -0.17 |
| CGTTCGAC | 0.0259 |
| GCCCCGGA | 0.235 |
| CATGATCA | -0.131 |
| CCGCCTAA | 0.253 |
| GCTCGCAC | 0.198 |
| CCAAGACC | -0.136 |

Sample 4 — target: CCND1, cyclin fold, Cln2 fusion (human); technique: yeast growth competition, sequencing; medium: yeast; notes: weak parent motif; baseline: not given; reading: higher = stronger binding
Parent: CDC6 docking peptide (human); TLKGRRLVFDNQL; partner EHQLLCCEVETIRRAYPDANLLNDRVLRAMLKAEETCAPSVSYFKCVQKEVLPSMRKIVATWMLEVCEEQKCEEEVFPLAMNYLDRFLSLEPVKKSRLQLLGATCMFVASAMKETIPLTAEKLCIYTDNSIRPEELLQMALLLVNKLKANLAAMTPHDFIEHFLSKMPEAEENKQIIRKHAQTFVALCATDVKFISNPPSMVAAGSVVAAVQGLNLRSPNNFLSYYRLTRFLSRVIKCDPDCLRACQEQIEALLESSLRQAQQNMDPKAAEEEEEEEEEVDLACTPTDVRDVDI
| Change | normalised enrichment score |
| --- | --- |
| TLKGRRLVSDNQL [F9S] | -0.0303 |
| PLKGRRLVFDNQL [T1P] | 0.668 |
| TLKGRRLVFDNIL [Q12I] | 0.608 |
| TLKGRRLVFDNQG [L13G] | 0.555 |
| TEKGRRLVFDNQL [L2E] | 0.578 |
| TLKGRRLVHDNQL [F9H] | -0.136 |
| NLKGRRLVFDNQL [T1N] | -0.0281 |
| MLKGRRLVFDNQL [T1M] | 0.108 |
| TLKGRRLVFDNQM [L13M] | 0.024 |
| TLKGRALVFDNQL [R6A] | 0.686 |
| TLKGRRDVFDNQL [L7D] | 0.185 |
| TLKFRRLVFDNQL [G4F] | -0.19 |
| TLKGRRIVFDNQL [L7I] | 0.505 |
| TLKGRRLVFDNTL [Q12T] | 0.472 |
| ALKGRRLVFDNQL [T1A] | 0.419 |

Sample 5 — technique: universal PBM; form: double-stranded DNA, one strand shown; medium: in vitro; tested at: not given; reading: higher = stronger binding
Target: Sal-like protein 4, full length isoform B (SALL4, Homo sapiens, UniProt Q9UJQ4-2, residues 1-616)
Notes: 8-mer, flanks averaged, mean of replicates
Residues (chain): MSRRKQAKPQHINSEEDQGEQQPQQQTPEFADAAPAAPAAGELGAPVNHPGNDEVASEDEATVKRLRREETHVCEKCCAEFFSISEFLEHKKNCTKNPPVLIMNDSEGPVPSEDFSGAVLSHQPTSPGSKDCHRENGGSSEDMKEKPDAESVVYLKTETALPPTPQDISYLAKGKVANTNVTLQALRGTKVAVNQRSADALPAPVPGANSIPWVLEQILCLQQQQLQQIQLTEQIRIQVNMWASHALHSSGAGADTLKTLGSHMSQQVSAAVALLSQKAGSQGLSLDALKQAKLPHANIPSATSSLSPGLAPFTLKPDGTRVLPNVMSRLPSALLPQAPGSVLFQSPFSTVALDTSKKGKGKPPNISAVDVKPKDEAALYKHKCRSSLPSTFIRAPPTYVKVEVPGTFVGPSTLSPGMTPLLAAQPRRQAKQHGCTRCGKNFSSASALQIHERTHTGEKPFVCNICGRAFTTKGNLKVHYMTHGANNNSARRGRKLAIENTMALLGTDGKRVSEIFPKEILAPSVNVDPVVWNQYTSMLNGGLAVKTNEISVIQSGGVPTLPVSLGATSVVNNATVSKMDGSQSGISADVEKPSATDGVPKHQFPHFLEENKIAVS
| Oligonucleotide | E-score |
| --- | --- |
| CTCGCCTC | -0.254 |
| CCGTGGAG | -0.228 |
| ATGTAATG | 0.261 |
| GCGATAGA | -0.117 |
| ACTGTACC | -0.0448 |
| GTTACCGA | -0.164 |
| GCCGGGTA | -0.371 |
| CACCAGGG | -0.231 |
| CGACTAGA | -0.176 |
| CTCGCTTC | -0.142 |
| GCCTTGAA | -0.106 |
| GCAAAAGC | 0.0711 |
| ACGTGCGG | -0.165 |
| ACCACCTA | -0.0488 |
| CTCGTTCA | 0.0603 |
| TCTTTCAA | 0.0615 |
| GCCAAACC | -0.17 |
| CCCCCGAG | -0.209 |
| CGCTGGAC | -0.3 |
| CTCGCGTC | -0.223 |
| ACAGACTA | 0.022 |
| ACCTTTCA | -0.00168 |
| CCTTACTA | 0.149 |
| AAATCCAA | 0.169 |
| ACCCTAGA | -0.0425 |

For quick reference, copied from above (sample 3):
| Oligonucleotide | E-score |
| --- | --- |
| AGTTCGAT | -0.267 |
| GCCCCGGA | 0.235 |
| CACTACAC | 0.0087 |
| AACGCGCG | 0.419 |
| GCTCGCAC | 0.198 |
| CAAATCAA | -0.203 |
| CTTGCCCC | -0.0511 |
| AGGACCCA | -0.274 |
| CATTTCGG | -0.118 |
| ACAAAAGA | -0.0406 |
| CCCGAGTA | 0.21 |
